Assay results of several laboratories.
Compare with care: the assays were run in different laboratories. ≈ marks a conversion by molar mass, not a printed value.

| SMILES | target or system | test | test system | setting | scale | endpoint | value |
| --- | --- | --- | --- | --- | --- | --- | --- |
| CCN(CC)CC(=O)Nc1cccc(-n2cc(-c3ccc4ccc(-c5cn(-c6cccc(NC(=O)CN(CC)CC)c6)nn5)cc4c3)nn2)c1 | RCC4 | PCR angiogenesis array, measured: TGFB2 |  | 5 x IC50, 6 h, normoxia | reference: untreated | fold regulation | -1.27 fold |
| C=CC(=O)N1[C@@H](c2ccc3c(c2)OCO3)c2[nH]c3ccccc3c2C[C@H]1C(=O)N1CCN(C)CC1 | human cyclin E1 N112C-3xFLAG:CDK2 | co-IP with TMT proteomics, measured: NCL |  | concentration not given, P19338 | reference: wild type DMSO | relative co-enrichment | 117% |
| CC(C)c1ccc(N(C)c2ccc3c(c2)OCC[C@H]3CNc2cnccc2C(=O)O)cc1 | SW1710 | cell growth or viability, ATP luminescence |  | 7 days |  | IC50 | 63.3 nM |
| C=C(NC(=O)c1csc(-c2nc3c(cc2O)-c2nc(cs2)C(=O)NC(C(C)O)C(=O)NC(=C(C)OC)c2nc(cs2)C(=O)NC2c4nc(cs4)C(=O)NC(COC(=O)c4c5c6c(cccc6n4O)COC(=O)C(OC4CC(C)(O)C(N(C)C)C(C)O4)C2OC5)c2nc-3cs2)n1)C(N)=O (stereo not shown) | Streptococcus pneumoniae |  | penicillin-resistant, 10 isolates | pH 8.5 |  | MIC50 | 0.0156 µg/mL (≈ 0.0109 µM) |
| NNC(=O)Cc1ccccc1 |  | hydrazine ligation kinetics, absorbance |  | concentration not given, 20 s, added: 2-formylphenylboronic acid |  | normalised absorbance | 0.544 |
| Cn1ncc2cc(-c3cncc(Cl)c3N3CCC4(CCNC4=O)CC3)ccc21 | LS174T | gene expression, microarray, measured: VASN mRNA |  | concentration not given, 24 h | reference: untreated cells | log2 fold change | -2.43 |
| CN1CCC[C@]1(C)/C=C/S(=O)(=O)NC(=O)Nc1c2c(cc3c1CCC3)CCC2 |  |  | human, whole blood ex vivo | 25 mg single dose, 3 h, single ascending dose, added: LPS and ATP |  | IL-18 inhibition | 95.8% |
| COC1CN([C@H]2CC[C@H]([C@@]3(C)Oc4c(Cl)cc(C(=O)NCc5c(SC)cc(C)[nH]c5=O)c(C)c4O3)CC2)C1 |  | RNA-seq, measured: SLC18A2 | human, whole blood | dose not given, 24 h | reference: pretreatment baseline | log2 fold change | 1.24 |
| CN1CCCNC(=O)c2cccc(c2)C(=O)NCCCN(C)CCCNc2cccc3c2C(=O)c2cccc(c2C3=O)NCCC1 | SAS | RNA-Seq, measured: GMNN mRNA |  | 1 µM, 6 h | reference: untreated cells | log2 fold change | -1.14 |
| Cc1ncsc1-c1ccc(C(C)NC(=O)C2CC(O)CN2C(=O)C(NC(=O)CCCCCCCCCCN2CCCC(Nc3ncc(Cl)c(Nc4ccccc4S(=O)(=O)C(C)C)n3)C2)C(C)(C)C)cc1 (stereo not shown) | 22Rv1 | RNA-seq, measured: MEPCE mRNA |  | concentration not given | reference: DMSO | log2 fold change | -1.68 |
| Nc1ncc(-c2cc(-c3cnn(CC(F)(F)F)c3)ncc2F)nc1C(=O)NC1CNCC(F)C1 (stereo not shown) | MARK4 | KINOMEscan |  | 1 µM | reference: DMSO control | remaining binding | 54% |
| C=CC(=O)Nc1cccc(Cn2ncc3cnc(Nc4cnn(CCOC)c4)nc32)c1 | PDGFRA human | binding, KINOMEscan |  | 100 nM | lower = stronger binding | percent of control | 69% |
| CNS(=O)(=O)Nc1nccc(Cc2c(C)c3ccc(Oc4ncccc4F)cc3oc2=O)c1F | HT-1376 | cell viability |  | 7 days |  | IC50 | > 1000 nM |

A few entries again:
| SMILES | target or system | test | test system | setting | scale | endpoint | value |
| --- | --- | --- | --- | --- | --- | --- | --- |
| CC(C)c1ccc(N(C)c2ccc3c(c2)OCC[C@H]3CNc2cnccc2C(=O)O)cc1 | SW1710 | cell growth or viability, ATP luminescence |  | 7 days |  | IC50 | 63.3 nM |
| C=C(NC(=O)c1csc(-c2nc3c(cc2O)-c2nc(cs2)C(=O)NC(C(C)O)C(=O)NC(=C(C)OC)c2nc(cs2)C(=O)NC2c4nc(cs4)C(=O)NC(COC(=O)c4c5c6c(cccc6n4O)COC(=O)C(OC4CC(C)(O)C(N(C)C)C(C)O4)C2OC5)c2nc-3cs2)n1)C(N)=O (stereo not shown) | Streptococcus pneumoniae |  | penicillin-resistant, 10 isolates | pH 8.5 |  | MIC50 | 0.0156 µg/mL (≈ 0.0109 µM) |
